Assay results from different studies.
A part holds a random share of what one study measured.

Sample 1
Target: Fragile X messenger ribonucleoprotein 1, C-terminal low-complexity region (Fmr1, Mus musculus, UniProt P35922)
Technique: RNA Bind-n-Seq
Form: RNA
Sample: in vitro
Concentration: 200 nM
Setting: whole 134-nt RNA, ends assumed
Added: 150 mM LiCl
Relative to: input library
Direction: higher = stronger binding
All molecules: 7-deaza-guanosine replaces G
Shared flanks, not repeated: GGGAGUUCUACAGUCCGACGAUC … UGGAAUUCUCGGGUGUCAAGG
Sequence	log2 enrichment
AGUCCUGUGCUACACAUCGUAUGUACCGAAUCGGUUUUUUUGGUUUGGUUUUUUUGGAAAGUAUUAUGUUACGCCGUUCGGAUCUGCACU	-2.74
ACCAUGCAGGUGGGCAUCUUUGGGAACUGGGGCAAGGGGGGGAUAGGGAGGGGGGUAACACUUUGGGAACAGGUGGUCCCAGGUCGUUUC	1.37
UGCUUCAGACCAAGCGGAGCUCCCGGAGGCAAAGCCUGGAGCUGCAGAAGUGUGAAGAGAUCCUCCACAAGAUCGUGAAGUACCGCUUCA	-3.33
ACCAUGCCGGUGGGCAUCUUUGGGAAGUGGGGCAAGGGGGGGAUAGGGAGGGGGGUAACACUUUGGGAACAGGUGGUCCCAGGUCGUUUC	1.11
AUUCUUCAUUGAGGGUGAGGAUCUCCCAAUGGGAGACUGCUCUGAAAAGAGCAUGUGCUUUUUGAAUUAGAUAACCUACUAUAAUCAUGG	-2.14
GUCCUGUGCUACACAUCGUAUGUACCGAAUCGGAAAAAGGUUUUUUUGGAAAAAAAGGAAAGUAUUAUGUUACGCCGUUCGGAUCUGCAC	-2.26
UUGAUUGAUAUUACAGGCAAGAACCAGGAUGAAUGUGUGAUUGCUUUGCAUGACUGCAAUGGAGAUGUCAACAGAGCUAUCAAUGUUCUU	-4.45
GUCCUGUGCUACACAUCGUAUGUACCGAAUCGGGGUUUUUUGGUUUUUUGGUUUUUUGGAAAGUAUUAUGUUACGCCGUUCGGAUCUGCA	-1.49
CACAGACAACACGCACCCACACAGACACAGAGGGAAGGGGUUGGGAUGGGGACAGGGUGCACAGAAAGGCGGGGUAGGACCCCAGCCCCU	-0.0707
CAAGUCCUGUGCUACACAUCGUAUGUACCGAAUCGGUUUGGGGUUUGGGUUUGGGGAAAGUAUUAUGUUACGCCGUUCGGAUCUGCACUU	-1.53
ACCAUGCAGGUGGGCAUCUUUGGGAGGUGGGGCAAGGGGGGGAUAGGGAGGGGGGUAACACUUUGGGAACAGGUGGUCCCAGGUCGUUUC	1.18

Sample 2
Target: RING finger protein unkempt homolog, zinc fingers 1-6, GST-SBP tag (UNK, Homo sapiens, UniProt Q9C0B0, residues 30-357)
Technique: RNA Bind-n-Seq
Form: RNA
Sample: in vitro
Concentration: not given
Setting: RNA with constant flanks, ends assumed
Relative to: input RNA pool
Direction: higher = stronger binding
Shared flanks, not repeated: GGGAGUUCUACAGUCCGACGAUC … CAACAGAGGAUUGAGCAUCA
Residues (chain): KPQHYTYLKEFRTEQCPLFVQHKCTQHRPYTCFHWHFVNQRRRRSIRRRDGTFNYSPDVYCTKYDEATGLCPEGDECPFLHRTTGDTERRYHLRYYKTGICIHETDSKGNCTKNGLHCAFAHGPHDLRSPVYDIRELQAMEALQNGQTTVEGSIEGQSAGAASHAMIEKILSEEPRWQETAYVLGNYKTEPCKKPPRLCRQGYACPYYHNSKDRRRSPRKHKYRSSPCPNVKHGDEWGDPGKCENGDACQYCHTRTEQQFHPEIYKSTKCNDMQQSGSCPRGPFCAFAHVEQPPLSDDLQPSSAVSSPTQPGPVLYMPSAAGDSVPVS
Sequence	bound/input enrichment
ACACUCUGACAUGAAUGAAUUAUUAUUAUUUUUAUUUUUCUUUUUUUUUUUACAUUUUGUACCGAAACAAAUUCAUUUAAACAAACUUAUUAUUAUUAUUUUUUACAAAAUAUAUAUAUG	68.1 ratio
GAGGAUAAUCCAUUUGCAGAGUACAUGUGGAUGGAAAAUGAAGAGGAAUUCAACAGACAAACCGAAGAGGAGUUGUGGGAAGAAGAAUUUAUUGAACGCUGUUUCCAAGAAAUGCUGGAA	0.32 ratio
CCAAUCGGACUGCACAAGAAGCGGAUUGAACUGUCUGUUCUUUCAUACCAUUCCUCCUUCCGCAUCAGAAAGAGCCGGUUGGUUCAUGGGUACAUUGUUUUUUAUUCAGCCAAACGUAAG	0.374 ratio
CCUCAGAAGAGGAAUCUUGCUUCUUUAAAGCUCUCAUGGUGCUUUCAUUUUAAAGGAGACUUCCGAAGAAAAAGAAUGGAAUGAAGUUUUGAGUUACAAUUCAAAUUUGGGGAUCAAUCC	0.0991 ratio
CUUGGGGACCUUCGAACUCUGGAGCUGCUGCUUAUCUGUGCAGGCCAUCCUCAAUAUGAGGCCGCCGAAAUUUCAUUUAACUUUUGGUACCGACUGGGGGAACAUUUGUACAAAACUAAC	0.187 ratio
AACAACUUUCUUCAAACACUAAAUCAAGCUUGGAAUGAUCAUCAAACAGCCAUGGUGAUGAUCCGAGACAUAUUAAUGUAUAUGGACCGUGUAUAUGUACAACAGAAUAAUGUAGAAAAU	0.258 ratio
AUGCCAAGUGUUUCUAAGCUUUAUUCUGAGAACUGACUUUCAACCUUCAGGUAUGCAUUUACCGAAUUUGCUUCAUUUGAAGAUGCUAAAGAAGCUUUAAAUUCCUGUAAUAAAAUGGAA	0.0406 ratio
CUGAAGAGUGUUUCUGAAAGAUCUAUCCAGCACUCCGAUGGCCAGCAACAACACCGCCAGCACCGCACAAGCCAGGAAGCUGGUAGAGCAGCUUAAGAUGGAAGCCAAUAUCGACAGGAU	0.127 ratio
AGCUUACUGUAUUAGUCAUUUUUAGCCCAUAAUUAAAACAUGAUCACUUUUACACAGGUGCCGUAUGGUGCAUUUCAUUCCUUAUUUAUAAAUUAACUGAAAUUACAGUUUGCUAUAAUA	5.42 ratio
CUAUCACUAUGGCAAAAACAUAAAUAUUAUCUCAUUUCAGUGUGUGGAGUUGUGGUUGCCGUGUUUGCCUGGUACAUCACCCAUGAUGUCAAUUAAAAAAAGUUUUGAUCUUUUAAUGUA	0.277 ratio
AUUUUAUUGGUGCCUUCUUUCAUCAUGCCUUUUAAAUCAAAGGGAUAUUGGUACAUGCUUUCCGAAGAAUUGUGUCAGUAUUACCGAAUUUUUGUUCCUAUACCAGUUUGGUUUCGGUAC	0.307 ratio

Sample 3
Target: Histone acetyltransferase KAT6A, both winged helices, GST fusion (KAT6A, Homo sapiens, UniProt Q92794, residues 1-181)
Technique: protein binding microarray
Form: double-stranded DNA, one strand shown
Sample: in vitro
Concentration: not given
Setting: 8-mer, flanks averaged, mean of 2 arrays, mostly near background
Relative to: not given
Direction: higher = stronger binding
Residues (chain): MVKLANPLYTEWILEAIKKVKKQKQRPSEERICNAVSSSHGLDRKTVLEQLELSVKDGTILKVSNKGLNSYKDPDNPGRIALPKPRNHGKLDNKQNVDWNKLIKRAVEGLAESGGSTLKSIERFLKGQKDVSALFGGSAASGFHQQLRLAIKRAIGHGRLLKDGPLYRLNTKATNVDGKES
Sequence	E-score
ACATTTAT	-0.0744
AATGCCTG	-0.212
ACTTTGAG	-0.219
CGTCCGGA	0.229
ACCCTTCC	-0.058
AGAGATCC	-0.174
GTCATAAC	-0.102
AAGGGACC	-0.0398
ACAGATTA	-0.103
AACACCCC	-0.117
CTTTGACC	0.0324
CCAGGAGA	-0.212
CGTGCCAC	0.124
AGAGTTTA	-0.112
GGGCGAAC	0.0208
AATCAAGT	-0.0532
CAAAACGG	0.163
AGGGCGAA	-0.0481
TGACGTAA	-0.109
GAGAACAC	-0.135
CGTTAATC	0.2
GCTCTTGA	-0.133
AAACATAA	-0.109
CACCAGCA	-0.274
AGAACAGG	-0.0931

Sample 4
Target: Prothrombin, mature alpha-thrombin (F2, Homo sapiens, UniProt P00734)
Technique: aptamer microarray, sandwich
Form: DNA with 2'F-ANA
Sample: in vitro
Concentration: 200 nM
Setting: whole 15-mer aptamer, many near background
Added: Cy3 exosite-II aptamer, 400 nM
Direction: higher = stronger binding
Sequence: GGTTGGTGTGGTTGG
Modification	mean fluorescence intensity
2'F-ANA at 3 4 6 8 9 10 12 13 14 15	148 a.u.
2'F-ANA at 4 5 8 9 10 12 13 14 15	50 a.u.
2'F-ANA at 2 4 6 7 11 12 14 15	102 a.u.
2'F-ANA at 1 2 8 9 10 11 12 13 14 15	49.7 a.u.
2'F-ANA at 1 2 5 8 9 13	50.1 a.u.
2'F-ANA at 1 8 9 10 11 13 14 15	49.5 a.u.
2'F-ANA at 3 4 5 8 10 13	50.1 a.u.
2'F-ANA at 1 2 4 5 6 7 8 9 12 13	76.7 a.u.
2'F-ANA at 6 7 12 13 15	473 a.u.
2'F-ANA at 2 3 4 5 6 9 10 12 13	52.5 a.u.
2'F-ANA at 6 7 12 13 14	207 a.u.
2'F-ANA at 1 2 3 6 9 10 13 14	53.8 a.u.
2'F-ANA at 1 3 5 8 9 11 12 14 15	47.1 a.u.
2'F-ANA at 1 2 3 6 8 11	245 a.u.
2'F-ANA at 1 4 9 10 13 15	49.6 a.u.
2'F-ANA at 3 4 5 8 9 10 12 13 15	90.2 a.u.
2'F-ANA at 1 3 5 9 10 12 15	50.7 a.u.
2'F-ANA at 3 4 5 6 9 11 12 14 15	50.3 a.u.
2'F-ANA at 1 3 5 6 9 10 11 12 14 15	58.1 a.u.
2'F-ANA at 3 4 6 7 8 9 11 14 15	245 a.u.
2'F-ANA at 5 8 9 11 12	160 a.u.
2'F-ANA at 1 5 8 9 12	136 a.u.
2'F-ANA at 1 2 3 6 8 9 10 12 13	79.5 a.u.
2'F-ANA at 2 7 9 10 12 15	195 a.u.

Sample 5
Target: Sal-like protein 4, full length isoform B (SALL4, Homo sapiens, UniProt Q9UJQ4-2, residues 1-616)
Technique: universal PBM
Form: double-stranded DNA, one strand shown
Sample: in vitro
Concentration: not given
Setting: 8-mer, flanks averaged, mean of replicates
Direction: higher = stronger binding
Residues (chain): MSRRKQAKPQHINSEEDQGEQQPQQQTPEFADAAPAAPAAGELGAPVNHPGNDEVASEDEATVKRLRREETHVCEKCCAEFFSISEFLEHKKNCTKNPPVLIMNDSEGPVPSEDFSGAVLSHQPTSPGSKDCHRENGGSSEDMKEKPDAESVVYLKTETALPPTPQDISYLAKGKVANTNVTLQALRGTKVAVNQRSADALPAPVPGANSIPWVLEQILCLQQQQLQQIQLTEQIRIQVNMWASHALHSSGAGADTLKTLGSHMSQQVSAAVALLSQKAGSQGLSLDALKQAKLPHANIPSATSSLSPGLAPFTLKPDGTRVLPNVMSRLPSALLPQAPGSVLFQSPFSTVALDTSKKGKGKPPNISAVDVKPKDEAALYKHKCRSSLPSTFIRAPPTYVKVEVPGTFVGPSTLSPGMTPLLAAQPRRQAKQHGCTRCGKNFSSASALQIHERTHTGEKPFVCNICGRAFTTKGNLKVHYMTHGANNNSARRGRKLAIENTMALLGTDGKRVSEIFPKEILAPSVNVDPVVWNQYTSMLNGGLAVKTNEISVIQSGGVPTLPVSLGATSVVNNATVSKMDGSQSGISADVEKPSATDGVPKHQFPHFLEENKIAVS
Sequence	E-score
CCGTTGGC	-0.244
AGGGATAC	0.0344
ACCCCCCA	-0.162
AGCTCGAG	-0.235
ATAGTGAC	0.167
AACAATGC	0.121
ACTACTAT	0.251
CGATAGAG	-0.0186
CGATATCC	-0.0633
AACGCCGC	-0.354
AAGACCAC	-0.109
GATCAACA	0.153
AGGACAAC	-0.025
TCGTCGAA	0.0573
AACTGGCA	0.00284
AATGCCCT	-0.055
TACAAACA	0.225
ATGGGTAC	0.0672
TGAGTGCA	-0.022
ACACCCGA	-0.109

Repeated from above (sample 3):
Sequence	E-score
ACCCTTCC	-0.058
ACATTTAT	-0.0744
AAGGGACC	-0.0398
CGTGCCAC	0.124
AACACCCC	-0.117
GAGAACAC	-0.135
